Measured values pooled from the literature.
Parts stem from different laboratories: compare values within a part only.
Sequence of UniProt P07333 (whole entry, looked up): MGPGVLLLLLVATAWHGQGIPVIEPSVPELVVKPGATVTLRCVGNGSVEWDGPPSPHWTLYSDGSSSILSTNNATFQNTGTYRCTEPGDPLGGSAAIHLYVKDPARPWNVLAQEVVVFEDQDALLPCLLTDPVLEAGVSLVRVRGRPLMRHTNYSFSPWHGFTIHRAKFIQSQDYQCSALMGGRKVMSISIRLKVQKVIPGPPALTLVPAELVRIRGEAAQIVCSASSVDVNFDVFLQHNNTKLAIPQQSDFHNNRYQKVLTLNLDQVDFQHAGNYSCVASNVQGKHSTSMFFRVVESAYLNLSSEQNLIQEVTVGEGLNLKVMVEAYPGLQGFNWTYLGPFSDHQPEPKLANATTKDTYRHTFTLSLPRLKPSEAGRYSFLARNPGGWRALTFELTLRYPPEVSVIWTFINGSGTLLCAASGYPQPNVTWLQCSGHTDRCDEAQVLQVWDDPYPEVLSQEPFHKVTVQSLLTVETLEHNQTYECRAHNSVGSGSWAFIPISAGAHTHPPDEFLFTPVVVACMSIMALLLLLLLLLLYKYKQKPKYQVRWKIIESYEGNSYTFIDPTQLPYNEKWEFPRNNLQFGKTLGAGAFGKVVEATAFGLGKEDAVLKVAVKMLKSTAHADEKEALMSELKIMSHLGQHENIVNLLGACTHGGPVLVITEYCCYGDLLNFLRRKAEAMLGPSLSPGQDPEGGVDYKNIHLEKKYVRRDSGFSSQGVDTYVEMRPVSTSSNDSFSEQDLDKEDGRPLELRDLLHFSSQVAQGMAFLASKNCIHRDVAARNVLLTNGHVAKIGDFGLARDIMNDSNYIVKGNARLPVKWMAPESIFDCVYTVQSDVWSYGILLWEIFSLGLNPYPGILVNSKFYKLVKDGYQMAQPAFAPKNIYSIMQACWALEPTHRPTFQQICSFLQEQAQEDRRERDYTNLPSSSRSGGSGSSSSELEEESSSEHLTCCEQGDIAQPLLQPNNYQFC
Sequence of UniProt P53778 (whole entry, looked up): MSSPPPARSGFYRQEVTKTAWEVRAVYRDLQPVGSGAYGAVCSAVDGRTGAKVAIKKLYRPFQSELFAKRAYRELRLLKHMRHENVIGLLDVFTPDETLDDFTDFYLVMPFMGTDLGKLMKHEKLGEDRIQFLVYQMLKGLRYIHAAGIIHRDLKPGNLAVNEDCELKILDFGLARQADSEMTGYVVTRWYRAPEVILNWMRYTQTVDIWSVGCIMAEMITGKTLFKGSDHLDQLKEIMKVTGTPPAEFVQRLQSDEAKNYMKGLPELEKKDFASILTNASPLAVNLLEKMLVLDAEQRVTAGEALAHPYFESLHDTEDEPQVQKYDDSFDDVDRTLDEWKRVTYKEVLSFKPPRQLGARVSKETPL
Sequence of UniProt Q04759 (whole entry, looked up): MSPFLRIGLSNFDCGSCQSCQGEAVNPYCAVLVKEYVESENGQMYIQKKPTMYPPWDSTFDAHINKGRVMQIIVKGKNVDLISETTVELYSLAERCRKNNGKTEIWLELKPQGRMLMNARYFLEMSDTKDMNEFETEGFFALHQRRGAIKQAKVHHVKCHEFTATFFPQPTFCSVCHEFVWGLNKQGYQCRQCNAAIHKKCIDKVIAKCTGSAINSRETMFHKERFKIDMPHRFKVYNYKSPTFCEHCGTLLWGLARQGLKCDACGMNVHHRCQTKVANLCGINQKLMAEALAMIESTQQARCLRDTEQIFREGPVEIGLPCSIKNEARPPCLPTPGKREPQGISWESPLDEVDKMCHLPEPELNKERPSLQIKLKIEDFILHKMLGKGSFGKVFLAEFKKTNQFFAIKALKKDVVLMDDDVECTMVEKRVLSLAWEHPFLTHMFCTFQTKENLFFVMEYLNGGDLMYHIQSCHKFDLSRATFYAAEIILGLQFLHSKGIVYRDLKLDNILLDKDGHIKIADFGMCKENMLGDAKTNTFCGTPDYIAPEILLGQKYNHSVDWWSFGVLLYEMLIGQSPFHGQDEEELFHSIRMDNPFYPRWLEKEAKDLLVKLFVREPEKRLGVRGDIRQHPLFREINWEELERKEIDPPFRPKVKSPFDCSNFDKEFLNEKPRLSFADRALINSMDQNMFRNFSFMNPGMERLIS
Sequence of UniProt P51813 (whole entry, looked up): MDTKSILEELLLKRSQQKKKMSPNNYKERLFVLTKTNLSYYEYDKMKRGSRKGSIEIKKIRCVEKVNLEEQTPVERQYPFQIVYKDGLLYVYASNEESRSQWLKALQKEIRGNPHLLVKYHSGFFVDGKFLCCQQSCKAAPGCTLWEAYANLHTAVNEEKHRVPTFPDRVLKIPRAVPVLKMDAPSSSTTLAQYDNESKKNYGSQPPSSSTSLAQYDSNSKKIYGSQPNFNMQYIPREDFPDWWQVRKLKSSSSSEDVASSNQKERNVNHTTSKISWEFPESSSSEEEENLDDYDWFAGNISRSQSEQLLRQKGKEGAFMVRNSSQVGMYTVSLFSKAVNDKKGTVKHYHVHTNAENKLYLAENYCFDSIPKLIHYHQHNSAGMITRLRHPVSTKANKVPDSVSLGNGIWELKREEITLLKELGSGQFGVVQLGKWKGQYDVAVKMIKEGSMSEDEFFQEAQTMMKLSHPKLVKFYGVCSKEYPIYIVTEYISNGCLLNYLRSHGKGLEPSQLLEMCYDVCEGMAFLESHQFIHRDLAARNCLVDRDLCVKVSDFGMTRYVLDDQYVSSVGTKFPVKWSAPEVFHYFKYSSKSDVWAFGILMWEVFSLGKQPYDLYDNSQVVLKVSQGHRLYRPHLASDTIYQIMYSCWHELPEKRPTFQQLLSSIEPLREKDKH
Sequence of UniProt O00141 (whole entry, looked up): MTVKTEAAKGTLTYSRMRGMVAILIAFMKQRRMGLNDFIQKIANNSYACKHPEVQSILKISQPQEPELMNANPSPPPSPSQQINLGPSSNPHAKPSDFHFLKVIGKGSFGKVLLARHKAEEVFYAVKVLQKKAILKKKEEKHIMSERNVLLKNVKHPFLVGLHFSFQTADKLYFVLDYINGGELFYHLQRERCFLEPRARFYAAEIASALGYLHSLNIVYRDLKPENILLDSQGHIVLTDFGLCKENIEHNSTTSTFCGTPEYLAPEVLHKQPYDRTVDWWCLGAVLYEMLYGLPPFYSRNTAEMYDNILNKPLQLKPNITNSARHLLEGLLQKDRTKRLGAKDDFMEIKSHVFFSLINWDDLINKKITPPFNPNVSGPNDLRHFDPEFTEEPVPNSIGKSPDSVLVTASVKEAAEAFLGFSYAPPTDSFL

Sample 1
SMILES: COc1ccc2[nH]c3c4[nH]c5ccc(OC)cc5c4c4c(c3c2c1)C(=O)NC4=O
Concentration: 1 µM
| target | assay | conditions | how to read | remaining binding [%] |
| --- | --- | --- | --- | --- |
| SRPK3 (Homo sapiens, UniProt Q9UPE1) | competitive binding panel | – | baseline: vehicle | 100 |
| MAPK9 (Homo sapiens, UniProt P45984) | competitive binding | JNK2 | – | 55 |
| YES1 (Homo sapiens, UniProt P07947) | competitive binding | YES | – | 73 |
| BMX (Homo sapiens, UniProt P51813) | competitive binding panel | – | baseline: vehicle | 99 |
| LYN (Homo sapiens, UniProt P07948) | competitive binding panel | – | baseline: vehicle | 69 |
| PLK1 (Homo sapiens, UniProt P53350) | competitive binding panel | – | baseline: vehicle | 90 |
| PRKX (Homo sapiens, UniProt P51817) | competitive binding panel | – | baseline: vehicle | 23 |
| PIK3CG (Homo sapiens, UniProt P48736) | competitive binding panel | – | baseline: vehicle | 87 |
| PIK3C2G (Homo sapiens, UniProt O75747) | competitive binding panel | – | baseline: vehicle | 76 |
| IGF1R (Homo sapiens, UniProt P08069) | competitive binding panel | – | baseline: vehicle | 97 |
| OXSR1 (Homo sapiens, UniProt O95747) | competitive binding panel, measured: OSR1 | – | baseline: vehicle | 100 |
| HIPK2 (Homo sapiens, UniProt Q9H2X6) | competitive binding panel | – | baseline: vehicle | 64 |

Sample 2
Target: Calcium/calmodulin-dependent protein kinase type II subunit alpha (CAMK2A, Homo sapiens, UniProt Q9UQM7)
Sequence of UniProt Q9UQM7 (whole entry, looked up): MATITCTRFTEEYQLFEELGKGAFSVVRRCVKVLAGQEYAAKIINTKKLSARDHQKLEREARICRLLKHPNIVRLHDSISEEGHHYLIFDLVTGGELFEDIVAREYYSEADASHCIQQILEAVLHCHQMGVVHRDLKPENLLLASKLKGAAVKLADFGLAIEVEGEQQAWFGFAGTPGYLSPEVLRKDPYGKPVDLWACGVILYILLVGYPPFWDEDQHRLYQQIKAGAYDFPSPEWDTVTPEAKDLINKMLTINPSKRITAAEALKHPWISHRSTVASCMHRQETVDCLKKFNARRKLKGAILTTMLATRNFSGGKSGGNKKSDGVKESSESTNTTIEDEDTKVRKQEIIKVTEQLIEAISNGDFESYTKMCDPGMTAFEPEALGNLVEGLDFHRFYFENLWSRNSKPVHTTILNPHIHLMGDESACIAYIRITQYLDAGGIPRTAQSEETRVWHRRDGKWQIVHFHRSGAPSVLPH
Read-out: enzyme activity
Action: inhibitor
Concentration: 10 µM
| SMILES | inhibition [%] |
| --- | --- |
| CCCCCCCC(=O)O[C@H](CC(=O)[O-])C[N+](C)(C)C | -28 |
| COc1cc2ccc(=O)oc2cc1O[C@@H]1O[C@H](CO)[C@@H](O)[C@H](O)[C@H]1O | 28 |
| Cc1cccc(N(C)C(=S)Oc2ccc3ccccc3c2)c1 | -9 |
| C[C@H](C[C@H](O)[C@H]1OC1(C)C)C1=C2C[C@H](O)[C@H]3[C@@]4(C)CCC(=O)C(C)(C)[C@@H]4CC[C@]3(C)[C@@]2(C)CC1 | -31 |
| CCCCC/C=C\C/C=C\CCCCCCCC(=O)OCC(O)CO (centres unmarked) | 12 |
| CSCC1CN(/N=C/c2ccc([N+](=O)[O-])o2)C(=O)O1 (centres unmarked) | -13 |
| COC(=O)C1=CO[C@@H](O)[C@@H]2C(CO)=CC[C@H]12 | 11 |
| COc1cc2oc(-c3ccc(O)c(O)c3)cc(=O)c2c(O)c1OC | 14 |
| CNS(=O)(=O)C[C@H]1CC[C@H](N(C)c2[nH]cnc3nccc2-3)CC1 | 2 |
| CC(C)C1=CC2=CC[C@@H]3[C@](C)(CCC[C@@]3(C)C(=O)O)[C@H]2CC1 | -29 |

Sample 3
Compound: CNCc1ccccc1-c1csc([C@@H](C)Nc2nc(C)nc3cc(OC)c(OC)cc23)c1
Read-out: cell-free assay
Technique: competition with immobilised ligand
Concentration: 1 µM
| target | remaining binding |
| --- | --- |
| Tyrosine-protein kinase ABL1, non-phosphorylated (ABL1, Homo sapiens, UniProt P00519) | 80% |
| CSF1R (Homo sapiens, UniProt P07333) | 91% |
| LATS1 (Homo sapiens, UniProt O95835) | 100% |
| CLK2 (Homo sapiens, UniProt P49760) | 98% |
| MAK (Homo sapiens, UniProt P20794) | 100% |
| SGK1 (Homo sapiens, UniProt O00141) | 81% |
| Macrophage colony-stimulating factor 1 receptor, autoinhibited (CSF1R, Homo sapiens, UniProt P07333) | 100% |
| IKBKB (Homo sapiens, UniProt O14920) | 94% |
| DCLK2 (Homo sapiens, UniProt Q8N568) | 99% |
| PRKCQ (Homo sapiens, UniProt Q04759) | 100% |
| NEK2 (Homo sapiens, UniProt P51955) | 92% |
| MAPK12 (Homo sapiens, UniProt P53778) | 100% |

Sample 4
Target: Death-associated protein kinase 1 (DAPK1, Homo sapiens, UniProt P53355)
Sequence of UniProt P53355 (whole entry, looked up): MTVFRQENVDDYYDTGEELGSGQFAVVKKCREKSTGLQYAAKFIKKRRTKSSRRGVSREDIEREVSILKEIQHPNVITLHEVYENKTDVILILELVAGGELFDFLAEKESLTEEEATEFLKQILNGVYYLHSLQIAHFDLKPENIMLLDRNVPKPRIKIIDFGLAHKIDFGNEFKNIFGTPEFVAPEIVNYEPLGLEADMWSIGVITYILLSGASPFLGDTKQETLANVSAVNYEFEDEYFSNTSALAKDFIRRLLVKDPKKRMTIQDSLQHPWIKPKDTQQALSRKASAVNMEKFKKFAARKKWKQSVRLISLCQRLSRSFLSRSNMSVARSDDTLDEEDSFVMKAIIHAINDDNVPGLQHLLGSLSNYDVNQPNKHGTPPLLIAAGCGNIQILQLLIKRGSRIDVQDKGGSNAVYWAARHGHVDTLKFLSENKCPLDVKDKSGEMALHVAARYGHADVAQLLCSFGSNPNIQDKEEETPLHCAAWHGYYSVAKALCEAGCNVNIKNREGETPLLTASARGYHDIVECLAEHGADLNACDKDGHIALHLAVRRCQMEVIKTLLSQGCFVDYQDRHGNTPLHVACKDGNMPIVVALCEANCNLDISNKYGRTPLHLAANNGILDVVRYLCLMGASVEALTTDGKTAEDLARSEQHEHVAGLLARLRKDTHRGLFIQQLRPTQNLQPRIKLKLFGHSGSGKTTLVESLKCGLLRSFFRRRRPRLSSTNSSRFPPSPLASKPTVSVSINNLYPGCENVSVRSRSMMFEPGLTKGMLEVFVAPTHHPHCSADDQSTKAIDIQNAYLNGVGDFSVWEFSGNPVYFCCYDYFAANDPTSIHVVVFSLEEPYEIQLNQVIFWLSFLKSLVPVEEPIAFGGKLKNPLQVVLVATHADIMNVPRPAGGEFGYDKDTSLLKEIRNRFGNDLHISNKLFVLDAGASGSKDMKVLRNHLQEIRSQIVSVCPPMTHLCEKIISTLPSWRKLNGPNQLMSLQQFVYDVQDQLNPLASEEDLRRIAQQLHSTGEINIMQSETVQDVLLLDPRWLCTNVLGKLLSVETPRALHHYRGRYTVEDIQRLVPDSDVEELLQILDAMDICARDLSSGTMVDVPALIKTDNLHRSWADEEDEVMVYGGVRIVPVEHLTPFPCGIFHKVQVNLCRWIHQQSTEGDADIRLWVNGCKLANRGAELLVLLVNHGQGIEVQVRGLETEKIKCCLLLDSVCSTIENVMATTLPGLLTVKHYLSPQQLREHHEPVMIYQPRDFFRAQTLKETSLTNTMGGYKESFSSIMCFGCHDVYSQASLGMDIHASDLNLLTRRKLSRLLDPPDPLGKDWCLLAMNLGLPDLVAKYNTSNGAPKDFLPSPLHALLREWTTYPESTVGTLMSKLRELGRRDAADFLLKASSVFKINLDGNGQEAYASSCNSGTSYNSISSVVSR
Read-out: enzyme activity
Action: inhibitor
Concentration: 0.5 µM
Baseline: control
| Compound | remaining activity [%] |
| --- | --- |
| CCOC(=O)c1c(C)[nH]c(/C=C2\C(=O)Nc3ccccc32)c1C | 100 |
| O=C1NC(=O)C(c2cn(CCCn3ccnc3)c3ccccc23)=C1Nc1ccccc1 | 99.2 |
| Cc1ccc(Nc2nccc(N(C)c3ccc4c(C)n(C)nc4c3)n2)cc1S(N)(=O)=O | 105 |
| NCCNc1ncc(C(N)=O)c(Nc2cccc(C(F)(F)F)c2)n1 | 97.1 |
| CO[C@H]1C[C@@H]2CC[C@@H](C)[C@@](O)(O2)C(=O)C(=O)N2CCCC[C@H]2C(=O)O[C@H]([C@H](C)C[C@@H]2CC[C@@H](O)[C@H](OC)C2)CC(=O)[C@H](C)/C=C(\C)[C@@H](O)[C@@H](OC)C(=O)[C@H](C)C[C@H](C)/C=C/C=C/C=C/1C | 88.5 |
| O=C(Nc1cccc(Nc2cc(Nc3cccc(C(F)(F)F)c3)ncn2)c1)C1CC1 | 94.7 |
| Cc1cccc(-c2[nH]c(C(C)(C)C)nc2-c2ccc3c(c2)OCO3)n1 | 102 |
| Cn1c2ccccc2c2c3c(c4c5ccccc5n(CCC#N)c4c21)CNC3=O | 102 |
| Nc1[nH]nc2nc3ccccc3nc12 | 91.5 |
| C#Cc1cccc(Nc2ncnc3cc(OCCOC)c(OCCOC)cc23)c1 | 103 |
| N#CC(C#N)=C(N)/C(C#N)=C/c1ccc(O)cc1 | 92.7 |
| COc1cc2ncnc(Nc3ccc(F)c(Cl)c3)c2cc1OCCCN1CCOCC1 | 109 |
| Nc1ncnc2n[nH]c(Nc3ccc(F)cc3)c12 | 116 |
| COc1cc2nccc(Oc3ccc(NC(=S)NC(=O)c4ccccc4C)cc3)c2cc1OC | 101 |
| OCC(O)CCON=C1C(c2c(O)[nH]c3ccccc23)=Nc2ccccc21 (centres unmarked) | 80.9 |
| Cc1nc(-c2ccccc2)c(-c2ccncc2)o1 | 124 |

A few entries again (sample 3):
| target | remaining binding |
| --- | --- |
| SGK1 (Homo sapiens, UniProt O00141) | 81% |
| PRKCQ (Homo sapiens, UniProt Q04759) | 100% |
| Tyrosine-protein kinase ABL1, non-phosphorylated (ABL1, Homo sapiens, UniProt P00519) | 80% |
| MAK (Homo sapiens, UniProt P20794) | 100% |
